Experimental data gathered from unrelated publications.
Each line is one published result; not all experiments were run side by side. ± gives the spread as reported.

CO[C@H]1[C@H](O)[C@@H](N)[C@@H](O[C@H]2[C@H](O[C@@H]3O[C@H](CO)[C@@H](O[C@H]4O[C@@H](CN)[C@@H](O)[C@H](O)[C@H]4N)[C@H]3O)[C@@H](O)[C@H](N)C[C@@H]2N)O[C@@H]1CO — IC50 (ribosome with human cytosolic A site; luciferase translation, cell-free translation): 128 ± 27.6 µg/mL
COC[C@@H](NC(C)=O)C(=O)NCc1ccc(OCc2ccc(OC(F)(F)F)cc2)cc1 — V1/2 of fast inactivation (voltage-gated sodium channel; whole-cell patch clamp; rat embryonic cortical neurons; 10 µM): -58.4 ± 1 mV
CCO[C@H]1[C@H](O)[C@@H](N)[C@@H](O[C@H]2[C@H](O[C@@H]3O[C@H](CO)[C@@H](O[C@H]4O[C@@H](CN)[C@@H](O)[C@H](O)[C@H]4N)[C@H]3O)[C@@H](O)[C@H](N)C[C@@H]2N)O[C@@H]1CO — IC50 (Mycobacterium smegmatis ribosome wild type; translation, cell-free luciferase synthesis): 0.08 ± 0.03 µg/mL
COc1ccc2ccc3c(c2c1)C=[N+]1C2CCCCC2[N+]2=Cc4cccc(OC)c4[O][Au-]21[O]3.F[P-](F)(F)(F)(F)F (stereo not drawn) — IC50 (Klebsiella pneumoniae thioredoxin reductase; inhibitor; carbapenem-resistant; together with: DTNB): 22.6 µM
COCO[C@H]1[C@H](O)[C@@H](N)[C@@H](O[C@H]2[C@H](O[C@@H]3O[C@H](CO)[C@@H](O[C@H]4O[C@@H](CN)[C@@H](O)[C@H](O)[C@H]4N)[C@H]3O)[C@@H](O)[C@H](N)C[C@@H]2N)O[C@@H]1CO — IC50 (ribosome with human cytosolic A site; luciferase translation, cell-free translation): 89.8 ± 4.87 µg/mL
C=CCn1cnc2c(NCc3ccc(C)s3)nc(N[C@H](CC)CO)nc21 — EC50 (Cav2.1 calcium channel; tail current integral, whole-cell patch clamp; HEK293 transfected with Cav2.1): 7.04 µM
CC1OCC2OC(OC3C(N)CC(N)C(O)C3OC3OC(CO)C(OC4OC(CN)C(O)C(O)C4N)C3O)C(N)C(O)C2O1 (stereo not drawn) — IC50 (Mycobacterium smegmatis ribosome wild type; translation, cell-free luciferase synthesis): 0.12 ± 0.08 µg/mL
CC[C@H](C)[C@H](NC(=O)[C@H](CCCNC(=N)N)NC(=O)[C@H](CCCNC(=N)N)NC(=O)[C@H](CC(C)C)NC(=O)[C@H](Cc1ccccc1)NC(=O)CNC(=O)CNC(=O)[C@@H](N)Cc1ccc(O)cc1)C(=O)N[C@@H](CCCNC(=N)N)C(=O)N1CCC[C@H]1C(=O)N[C@@H](CCCCN)C(=O)N[C@@H](CC(C)C)C(=O)N[C@@H](CCCCN)C(=O)N[C@@H](Cc1c[nH]c2ccccc12)C(=O)N[C@@H](CC(=O)O)C(=O)N[C@@H](CC(N)=O)C(=O)N[C@@H](CCC(N)=O)C(=O)O — EC50 (human/Rana pipiens MOR chimera EL2; cAMP response, agonist; HEK-293T; together with: isoproterenol): 2.5 µM
CC[C@H](C)[C@@H]1NC(=O)[C@H](Cc2ccc(O)cc2)NC(=O)[C@@H](N)CSSC[C@@H](C(=O)N2CCC[C@H]2C(=O)N2CCC[C@H]2C(=O)NCC(N)=O)NC(=O)[C@H](CC(N)=O)NC(=O)[C@H](CCC(N)=O)NC1=O — Emax (oxytocin receptor (titi monkey); Ca2+ mobilisation, agonist; CHO cells): 2780 RFU
C[C@H](NC(=O)[C@@H]1CCCN1C(=O)[C@H](Cc1ccc(O)cc1)NC(=O)CNC(=O)[C@H](CO)NC(=O)[C@H](Cc1ccccc1)NC(=O)[C@@H](N)[C@@H](C)O)C(=O)N[C@@H](Cc1ccccc1)C(=O)O — spontaneous firing rate (mu opioid receptor, rat; agonist; Sprague Dawley rat, rostral supraoptic nucleus, brain slice; focal application, dose not given): inhibited
CCCCCCCC(=O)N[C@@H](CCCCNS(=O)(=O)c1cccc2c(N(C)C)cccc12)C(=O)N[C@H](C(=O)N[C@@H](CCN)C(=O)N[C@H]1CCNC(=O)[C@H]([C@@H](C)O)NC(=O)[C@H](CCN)NC(=O)[C@H](CCN)NC(=O)[C@H](CC(C)C)NC(=O)[C@@H](Cc2ccccc2)NC(=O)[C@H](CCN)NC1=O)[C@@H](C)O — stoichiometry, first site (LPS, Escherichia coli; ITC; pH 7.0, 37 °C): 2 ± 0.3
COc1ccc(CCN2CCC[C@H](CN3CCc4cc(OC)c(OC)cc4CC3=O)C2)cc1OC — inhibition (HCN channel mouse; Ih current; VTA dopamine neurons; concentration not given): inhibited
CCCO[C@H]1[C@H](O)[C@@H](N)[C@@H](O[C@H]2[C@H](O[C@@H]3O[C@H](CO)[C@@H](O[C@H]4O[C@@H](CN)[C@@H](O)[C@H](O)[C@H]4N)[C@H]3O)[C@@H](O)[C@H](N)C[C@@H]2N)O[C@@H]1CO — IC50 (Mycobacterium smegmatis ribosome wild type; translation, cell-free luciferase synthesis): 0.14 ± 0.02 µg/mL
COC[C@@H](NC(C)=O)C(=O)NCc1ccc(OCc2ccc(Cl)cc2)cc1 — V1/2 of fast inactivation (voltage-gated sodium channel; whole-cell patch clamp; rat embryonic cortical neurons; 10 µM): -57.9 ± 0.7 mV
NC[C@@H]1O[C@H](O[C@H]2[C@@H](O)[C@H](O[C@@H]3[C@@H](O)[C@H](N)C[C@H](N)[C@H]3O[C@H]3O[C@H](CO)[C@@H](OCCO)[C@H](O)[C@H]3N)O[C@@H]2CO)[C@H](N)[C@@H](O)[C@@H]1O — IC50 (ribosome with human cytosolic A site; luciferase translation, cell-free translation): 74.4 ± 11.9 µg/mL
CCCCC[N+](CCCCC)(CCCCC)CCCCC — fold change of IC50 (Shaker Δ6-46 (Drosophila); ion current, blocker, inside-out patch clamp; Xenopus oocytes; +40 mV, together with: extracellular K+ 4 to 120 mM): 2.1 fold
CC[C@@H]1CN2CCc3c([nH]c4cccc(OC)c34)[C@@H]2C[C@@H]1/C(=C\OC)C(=O)OC — cross-reactivity (anti-compound rabbit antibody; competitive indirect ELISA; concentration not given; baseline: compound IC50): 100%
CC(C)C[C@H](NC(=O)[C@H](Cc1ccc(OP(=O)(O)O)cc1)NC(=O)[C@H](CCC(=O)O)NC(=O)[C@H](CC(=O)O)NC(=O)[C@H](C)NC(=O)[C@H](CC(=O)O)NC(=O)[C@@H](NC(=O)CCCCCNC(=O)CCCC[C@@H]1SC[C@@H]2NC(=O)N[C@@H]21)C(C)C)C(N)=O — dephosphorylation (VH1 phosphatase): 24%
CC[C@H](C)[C@H](N)C(=O)N[C@@H](CC(N)=O)C(=O)N[C@@H](CCC(=O)O)C(=O)N[C@@H](CC(=O)O)C(=O)N1CCC[C@H]1C(=O)NCC(=O)N[C@@H](CC(N)=O)C(=O)N[C@@H](CS)C(=O)N[C@@H](CCC(=O)O)C(=O)NCC(=O)N[C@H](C(=O)N[C@@H](CCCCN)C(=O)N[C@@H](CCCNC(=N)N)C(=O)N[C@H](C(=O)N[C@@H](CC(C)C)C(=O)N[C@@H](CO)C(=O)N[C@@H](Cc1ccccc1)C(=O)N[C@@H](CO)C(=O)N[C@@H](CC(C)C)C(=O)N[C@@H](CCCNC(=N)N)C(=O)N[C@@H](CO)C(=O)NCC(=O)N[C@@H](CCCNC(=N)N)C(=O)N[C@H](C(=O)N[C@@H](CO)C(=O)NCC(=O)N[C@@H](CCCNC(=N)N)C(=O)N[C@@H](CC(N)=O)C(=O)N[C@@H](Cc1c[nH]c2ccccc12)C(=O)N[C@@H](CCCCN)C(=O)N[C@@H](CC(N)=O)C(=O)N[C@@H](Cc1ccccc1)C(=O)N[C@@H](C)C(=O)N[C@@H](CC(C)C)C(=O)N[C@H](C(=O)N1CCC[C@H]1C(=O)N[C@@H](CC(C)C)C(=O)N[C@@H](CC(C)C)C(=O)N[C@@H](CCCNC(=N)N)C(=O)N[C@@H](CC(=O)O)C(=O)N[C@@H](C)C(=O)N[C@@H](CO)C(=O)N[C@H](C(=O)N[C@@H](CCCNC(=N)N)C(=O)O)[C@@H](C)O)C(C)C)C(C)C)[C@@H](C)O)C(C)C — tryptophan emission maximum (calmodulin; 10 µM, pH 7.5, together with: calmodulin 10 µM, CaCl2 1 mM): 330 nm
COCOC[C@H]1O[C@H](O[C@H]2[C@H](O[C@@H]3O[C@H](CO)[C@@H](O[C@H]4O[C@@H](CN)[C@@H](O)[C@H](O)[C@H]4N)[C@H]3O)[C@@H](O)[C@H](N)C[C@@H]2N)[C@H](N)[C@@H](O)[C@@H]1OCOC — IC50 (ribosome with human cytosolic A site; luciferase translation, cell-free translation): 483 ± 58.5 µg/mL
CCCCCCCCC(=O)NCc1ccc(O)c(OC)c1 — IC50 (mAb 5-3H1; antibody binding, indirect competitive ELISA; together with: coating antigen 1-OVA): 0.0216 µg/mL

Excerpt of the above:
CCO[C@H]1[C@H](O)[C@@H](N)[C@@H](O[C@H]2[C@H](O[C@@H]3O[C@H](CO)[C@@H](O[C@H]4O[C@@H](CN)[C@@H](O)[C@H](O)[C@H]4N)[C@H]3O)[C@@H](O)[C@H](N)C[C@@H]2N)O[C@@H]1CO — IC50 (Mycobacterium smegmatis ribosome wild type; translation, cell-free luciferase synthesis): 0.08 ± 0.03 µg/mL
COc1ccc2ccc3c(c2c1)C=[N+]1C2CCCCC2[N+]2=Cc4cccc(OC)c4[O][Au-]21[O]3.F[P-](F)(F)(F)(F)F (stereo not drawn) — IC50 (Klebsiella pneumoniae thioredoxin reductase; inhibitor; carbapenem-resistant; together with: DTNB): 22.6 µM
COCO[C@H]1[C@H](O)[C@@H](N)[C@@H](O[C@H]2[C@H](O[C@@H]3O[C@H](CO)[C@@H](O[C@H]4O[C@@H](CN)[C@@H](O)[C@H](O)[C@H]4N)[C@H]3O)[C@@H](O)[C@H](N)C[C@@H]2N)O[C@@H]1CO — IC50 (ribosome with human cytosolic A site; luciferase translation, cell-free translation): 89.8 ± 4.87 µg/mL
